Experimental data of several laboratories.
Protocols differ between the studies behind these lines. Values joined by “and” are separate records of one study, mostly repeats; a detail may differ.

Structure (SMILES) = C=Cc1c(C)c2cc3nc(c(CC(=O)O)c4[nH]c(cc5nc(cc1[nH]2)C(C)=C5CC)c(C)c4C(=O)O)[C@@H](CCC(=O)O)[C@@H]3C; cell line = 4T1; assay = wound healing; conditions = concentration not given, no laser irradiation; endpoint = cell motility; result = 51.7% and 47.1% and 38.1%
Structure (SMILES) = CC/C(=N\NC(=O)NCc1cccc(O)c1)c1ccc(O)c(C)c1O; cell line = SK-OV-3; assay = gene expression, microarray, measured: F11R; conditions = 10 µM, 24 h; scale = reference: DMSO; endpoint = log ratio; result = -2.8
Structure (SMILES) = O=C(/C=C/C=C/C=C/C1CCCCC1)NC1=C[C@@](O)(/C=C/C=C/C=C/C(=O)NC2=C(O)CCC2=O)[C@@H]2O[C@@H]2C1=O; cell line = l33; assay = cell growth, inhibitor, CellTiter-Glo luminescence; conditions = 78 h; scale = reference: day 0 cell count; endpoint = GI50; result = 16.8 µM
Structure (SMILES) = COc1nc(NCc2cn(-c3ccc(C(=O)Nc4ccc(C(F)(F)F)cc4)cc3)nn2)nc(OC)n1; cell line = HCT-116; assay = annexin V-FITC/PI; conditions = IC50, 24 h; endpoint = necrotic cells; result = 3.95%
Structure (SMILES) = CCCOc1ccc(-c2ccc(C#N)cc2)cc1; cell line = BeWo; assay = RNA sequencing; conditions = 50 µM, middle dose; endpoint = number of downregulated genes; result = 37
Structure (SMILES) = CC(C)NCC(O)c1ccc(O)c(O)c1 (stereo not drawn); cell line = mouse ventricular cardiomyocytes; conditions = dose not given, 0.387 s; endpoint = sarcomere length; result = 1.8 µm
Structure (SMILES) = COc1cnc2cccc(N3CCc4c(cc(Cn5ccnc5C)cc4-c4cn(C)nc4C(F)(F)F)C3=O)c2c1; cell line = SNU-16; assay = cell growth, inhibitor; conditions = 120 h; endpoint = EC50; result = 2.17 µM
Structure (SMILES) = Cc1cccc(-c2[nH]c(CNc3ccccc3F)nc2-c2ccc3ncnn3c2)n1; cell line = CD8+ T cells from myeloma patient; assay = ELISA; system = human; conditions = 1 µM; endpoint = TNF-alpha production; result = 1.16% and 1.04% and 0.99% and 1.07% and 1.13% and 0.988%
Structure (SMILES) = CCn1cc(-c2cc(Cn3ccnc3)cc3c2CCN([C@H](c2cc(OC)ccn2)C2CC2)C3=O)c(C(F)(F)F)n1; cell line = TEN; assay = cell growth; conditions = 120 h; endpoint = EC50; result = 23.1 µM
Structure (SMILES) = Nc1cccc2c1C(=O)N(C1CCC(=O)NC1=O)C2=O (stereo not drawn); cell line = bone marrow CD138+ myeloma cells; assay = XTT; conditions = 2 µM, phenol red-free RPMI; endpoint = viability; result = 6%
Structure (SMILES) = CCn1cc(-c2cc(Cn3ccoc3=N)cc3c2CCN([C@@H](C)c2cc(OC)ccn2)C3=O)c(C(F)(F)F)n1; cell line = BT-474; assay = cell growth, inhibitor; conditions = 120 h; endpoint = EC50; result = 8.81 µM
Structure (SMILES) = CCN(Cc1ccccc1F)c1ccc(CO)c(Cl)c1; cell line = RBE; assay = cell viability, CellTiter-Glo; endpoint = IC50; result = 0.29 µM
Structure (SMILES) = Cc1cnc(NC2CCOCC2)nc1-n1cnc(C(=O)NC(CN)c2cc(F)cc(Cl)c2)c1 (stereo not drawn); cell line = Rec1; assay = flow cytometry; conditions = 1 µM, 48 h; endpoint = G2 phase cells; result = 20.3%
Structure (SMILES) = COc1cc(C2C3=C(COC3=O)N(CCO)c3cc4c(cc32)CCC4)cc(OC)c1OC (stereo not drawn); cell line = 4T1; assay = colony formation; conditions = 0.1 to 0.5 µM, 6 to 10 days; endpoint = clonogenic growth; result = inhibited
Structure (SMILES) = Cn1cc(-c2ccc(-c3cncc(Cl)c3N3CCC4(CCNC4=O)CC3)cc2)cn1; cell line = COLO 205; assay = gene expression, microarray, measured: TLE2 mRNA; conditions = concentration not given, 2 h; scale = reference: untreated cells; endpoint = log2 fold change; result = 3.33
